Measurements of several laboratories.
Compare with care: the assays were run in different laboratories.
Effect on: metabolic stability
Species: mouse

Structure (SMILES) | system | setting | half-life
Cc1ncsc1-c1ccc([C@H](CC(=O)N2CC3(C2)CN(c2ccc(C#Cc4ccc(C(=O)N5CCC(n6cc(-c7ccc8c(c7)CCN8C(=O)Cc7cccc(OC(F)(F)F)c7)c7c(N)ncnc76)CC5)cc4)cn2)C3)NC(=O)[C@@H]2C[C@@H](O)CN2C(=O)[C@@H](NC(=O)C2(F)CC2)C(C)(C)C)cc1 | liver S9 | 1 µM | > 90 min
O=c1c2ccc(OCc3cccc(OC(F)(F)F)c3)cc2[nH]c2cc(F)cc(Cl)c12 | liver microsomes | 1 µM, pH 7.4 | > 60 min
CC(C)n1ncc2c(C(=O)NC(C)(C)CN)cc(C3CC3)nc21 | liver microsomes |  | 72.6 min
CC(C)C[C@@H]1CCO[C@@H]2[C@H](CN[C@@H]2C(=O)N[C@H]2[C@H]3O[C@H](SCC/C=C\[C@H]2C)[C@H](O)[C@@H](O)[C@H]3O)C1 | liver microsomes | pH 7.4 | 34.5 min
N=C(N/N=C/c1ccc(Cl)cc1)N/N=C/c1ccc(Cl)cc1 | liver microsomes | 1 µM, pH 7.4 | 159 min
Cc1ncsc1-c1ccc([C@H](C)NC(=O)[C@@H]2C[C@@H](O)CN2C(=O)[C@@H](NC(=O)CCN2CCC(C#Cc3ccc(C(=O)NCCCn4cc(-c5ccc6c(c5)CCN6C(=O)Cc5cccc(OC(F)(F)F)c5)c5c(N)ncnc54)cc3)CC2)C(C)(C)C)cc1 | liver S9 | 1 µM | 15.6 min
O=c1c2ccc(Oc3ccc(OC(F)(F)F)cc3)cc2[nH]c2cc(F)c(Cl)cc12 | liver microsomes | 1 µM, pH 7.4 | > 60 min
Cl.N=C(N/N=C/c1cnc2cc(Cl)ccc2c1)N/N=C/c1cnc2cc(Cl)ccc2c1 | liver microsomes | 1 µM, pH 7.4 | 24.9 min
Cc1ncsc1-c1ccc([C@H](C)NC(=O)[C@@H]2C[C@@H](O)CN2C(=O)[C@@H](NC(=O)CCCCCCCCC(=O)N2CCC(n3cc(-c4ccc5c(c4)CCN5C(=O)Cc4cccc(OC(F)(F)F)c4)c4c(N)ncnc43)CC2)C(C)(C)C)cc1 | liver S9 | 1 µM | 67.3 min
CNCCNC(=O)c1cc(C(C)C)nc2c1cnn2C(C)C | liver microsomes |  | 7.9 min
O=c1c2c([nH]c3cc(OC(F)(F)F)ccc13)CCCC2 | liver microsomes | 1 µM, pH 7.4 | 10 min
Cc1ncsc1-c1ccc(C2(NC(=O)[C@@H]3C[C@@H](O)CN3C(=O)[C@@H](NC(=O)CCCCCCCCCCC(=O)N3CCC(n4cc(-c5ccc6c(c5)CCN6C(=O)Cc5cccc(OC(F)(F)F)c5)c5c(N)ncnc54)CC3)C(C)(C)C)CC2)cc1 | liver S9 | 1 µM | 48 min
Cl.N=C(N/N=C/c1ccnc2ccccc12)N/N=C/c1ccnc2ccccc12 | liver microsomes | 1 µM, pH 7.4 | 16.6 min
O=c1c2ccc(OC3CCNCC3)cc2[nH]c2cc(F)cc(Cl)c12 | liver microsomes | 1 µM, pH 7.4 | > 60 min

Repeated from above:
Structure (SMILES) | system | setting | half-life
Cl.N=C(N/N=C/c1cnc2cc(Cl)ccc2c1)N/N=C/c1cnc2cc(Cl)ccc2c1 | liver microsomes | 1 µM, pH 7.4 | 24.9 min
Cc1ncsc1-c1ccc([C@H](C)NC(=O)[C@@H]2C[C@@H](O)CN2C(=O)[C@@H](NC(=O)CCCCCCCCC(=O)N2CCC(n3cc(-c4ccc5c(c4)CCN5C(=O)Cc4cccc(OC(F)(F)F)c4)c4c(N)ncnc43)CC2)C(C)(C)C)cc1 | liver S9 | 1 µM | 67.3 min
